Measurements of several laboratories.
Compare with care: the assays were run in different laboratories. ± marks the error that the study gave.
Urease: Urease (Canavalia ensiformis, UniProt P07374)
UniProt P07374, sequence (whole entry, looked up): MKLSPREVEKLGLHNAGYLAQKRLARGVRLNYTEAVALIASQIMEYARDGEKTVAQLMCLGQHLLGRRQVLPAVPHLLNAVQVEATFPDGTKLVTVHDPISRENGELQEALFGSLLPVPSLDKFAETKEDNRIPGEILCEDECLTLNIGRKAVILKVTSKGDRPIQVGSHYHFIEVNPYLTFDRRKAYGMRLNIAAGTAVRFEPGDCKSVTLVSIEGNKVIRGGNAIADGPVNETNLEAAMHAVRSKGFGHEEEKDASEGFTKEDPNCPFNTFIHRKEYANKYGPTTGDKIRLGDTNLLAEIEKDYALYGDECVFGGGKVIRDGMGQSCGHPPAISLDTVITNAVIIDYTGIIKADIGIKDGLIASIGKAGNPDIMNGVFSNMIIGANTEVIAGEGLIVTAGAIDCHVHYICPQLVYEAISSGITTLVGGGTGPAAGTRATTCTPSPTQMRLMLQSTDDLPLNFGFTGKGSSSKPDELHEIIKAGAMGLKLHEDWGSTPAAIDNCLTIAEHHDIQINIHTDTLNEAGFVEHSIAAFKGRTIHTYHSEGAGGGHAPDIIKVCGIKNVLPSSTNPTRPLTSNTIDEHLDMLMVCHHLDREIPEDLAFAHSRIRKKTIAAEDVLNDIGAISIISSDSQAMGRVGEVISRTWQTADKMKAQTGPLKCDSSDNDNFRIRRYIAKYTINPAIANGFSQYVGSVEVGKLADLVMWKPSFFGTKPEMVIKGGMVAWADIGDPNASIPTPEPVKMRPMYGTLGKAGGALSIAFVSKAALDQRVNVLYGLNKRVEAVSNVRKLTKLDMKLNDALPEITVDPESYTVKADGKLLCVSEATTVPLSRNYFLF
crk3 with CYC6: crk3, with CYC6 (Leishmania mexicana, UniProt O15851)
DNA polymerase catalytic subunit: DNA polymerase catalytic subunit (Human cytomegalovirus, UniProt P08546)
UniProt P08546, sequence (whole entry, looked up): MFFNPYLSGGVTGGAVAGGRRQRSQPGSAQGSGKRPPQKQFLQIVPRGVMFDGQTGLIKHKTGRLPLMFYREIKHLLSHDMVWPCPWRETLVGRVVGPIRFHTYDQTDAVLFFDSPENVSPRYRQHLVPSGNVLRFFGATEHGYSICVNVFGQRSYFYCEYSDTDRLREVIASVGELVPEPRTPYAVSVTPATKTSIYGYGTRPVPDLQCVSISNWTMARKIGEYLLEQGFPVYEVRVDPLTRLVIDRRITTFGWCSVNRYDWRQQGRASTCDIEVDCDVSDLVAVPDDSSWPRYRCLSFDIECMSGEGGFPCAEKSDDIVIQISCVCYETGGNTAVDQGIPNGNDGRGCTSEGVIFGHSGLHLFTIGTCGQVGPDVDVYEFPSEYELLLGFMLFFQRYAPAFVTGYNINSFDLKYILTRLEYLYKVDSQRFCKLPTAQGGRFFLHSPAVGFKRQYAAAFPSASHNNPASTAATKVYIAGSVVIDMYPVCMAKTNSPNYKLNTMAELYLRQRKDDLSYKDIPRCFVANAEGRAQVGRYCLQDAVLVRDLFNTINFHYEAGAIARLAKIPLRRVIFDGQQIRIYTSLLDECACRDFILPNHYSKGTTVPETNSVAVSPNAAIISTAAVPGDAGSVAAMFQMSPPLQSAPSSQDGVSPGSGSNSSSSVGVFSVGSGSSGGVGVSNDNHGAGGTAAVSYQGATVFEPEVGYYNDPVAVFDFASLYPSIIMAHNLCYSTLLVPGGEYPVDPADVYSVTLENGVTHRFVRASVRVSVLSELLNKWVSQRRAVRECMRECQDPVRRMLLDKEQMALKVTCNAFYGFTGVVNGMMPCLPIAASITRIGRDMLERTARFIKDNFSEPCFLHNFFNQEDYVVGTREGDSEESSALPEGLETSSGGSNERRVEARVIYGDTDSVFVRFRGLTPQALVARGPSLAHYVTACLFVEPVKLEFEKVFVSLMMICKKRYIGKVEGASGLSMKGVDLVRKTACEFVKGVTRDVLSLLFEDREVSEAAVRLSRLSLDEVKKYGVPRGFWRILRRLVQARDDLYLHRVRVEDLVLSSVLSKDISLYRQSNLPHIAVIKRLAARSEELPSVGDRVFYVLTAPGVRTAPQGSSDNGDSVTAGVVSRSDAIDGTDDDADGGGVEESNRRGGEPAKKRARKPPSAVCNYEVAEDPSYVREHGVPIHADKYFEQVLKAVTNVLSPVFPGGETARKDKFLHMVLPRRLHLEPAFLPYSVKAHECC
SNCA pre-formed fibrils: Alpha-synuclein, pre-formed fibrils (SNCA, Homo sapiens, UniProt P37840)
PDE1C: Dual specificity calcium/calmodulin-dependent 3',5'-cyclic nucleotide phosphodiesterase 1C (PDE1C, Homo sapiens, UniProt Q14123)
UniProt Q14123, sequence (whole entry, looked up): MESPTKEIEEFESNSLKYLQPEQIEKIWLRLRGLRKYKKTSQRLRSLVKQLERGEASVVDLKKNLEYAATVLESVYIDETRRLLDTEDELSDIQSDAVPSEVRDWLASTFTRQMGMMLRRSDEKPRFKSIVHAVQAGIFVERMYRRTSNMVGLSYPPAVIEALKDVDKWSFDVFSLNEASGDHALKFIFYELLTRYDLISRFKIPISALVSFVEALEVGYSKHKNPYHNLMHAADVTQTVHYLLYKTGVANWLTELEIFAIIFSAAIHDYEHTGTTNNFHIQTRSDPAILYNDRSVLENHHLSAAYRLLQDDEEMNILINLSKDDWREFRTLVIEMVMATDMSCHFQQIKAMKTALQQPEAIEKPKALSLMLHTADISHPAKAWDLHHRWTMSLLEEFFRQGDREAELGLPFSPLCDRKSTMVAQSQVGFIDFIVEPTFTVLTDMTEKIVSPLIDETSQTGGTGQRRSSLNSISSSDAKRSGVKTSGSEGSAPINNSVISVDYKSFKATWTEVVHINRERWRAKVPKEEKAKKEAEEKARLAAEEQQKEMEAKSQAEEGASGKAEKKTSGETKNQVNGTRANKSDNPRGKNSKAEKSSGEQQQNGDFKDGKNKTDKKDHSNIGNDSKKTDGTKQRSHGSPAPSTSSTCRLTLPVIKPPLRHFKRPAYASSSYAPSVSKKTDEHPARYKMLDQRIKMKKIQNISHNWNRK
Proteasome subunit beta type-10: Proteasome subunit beta type-10 (Homo sapiens, UniProt P40306)
UniProt P40306, sequence (whole entry, looked up): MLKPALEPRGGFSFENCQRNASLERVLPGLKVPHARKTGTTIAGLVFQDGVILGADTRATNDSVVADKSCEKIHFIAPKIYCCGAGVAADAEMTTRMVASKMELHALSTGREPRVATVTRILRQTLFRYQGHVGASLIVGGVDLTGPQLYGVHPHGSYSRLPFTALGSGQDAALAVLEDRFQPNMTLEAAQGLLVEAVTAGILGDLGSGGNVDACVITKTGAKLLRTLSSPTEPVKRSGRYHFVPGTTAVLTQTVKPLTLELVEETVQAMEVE
SYK tandem SH2 domains: Tyrosine-protein kinase SYK, tandem SH2 domains (SYK, Homo sapiens, UniProt P43405)
UniProt O00141, sequence (whole entry, looked up): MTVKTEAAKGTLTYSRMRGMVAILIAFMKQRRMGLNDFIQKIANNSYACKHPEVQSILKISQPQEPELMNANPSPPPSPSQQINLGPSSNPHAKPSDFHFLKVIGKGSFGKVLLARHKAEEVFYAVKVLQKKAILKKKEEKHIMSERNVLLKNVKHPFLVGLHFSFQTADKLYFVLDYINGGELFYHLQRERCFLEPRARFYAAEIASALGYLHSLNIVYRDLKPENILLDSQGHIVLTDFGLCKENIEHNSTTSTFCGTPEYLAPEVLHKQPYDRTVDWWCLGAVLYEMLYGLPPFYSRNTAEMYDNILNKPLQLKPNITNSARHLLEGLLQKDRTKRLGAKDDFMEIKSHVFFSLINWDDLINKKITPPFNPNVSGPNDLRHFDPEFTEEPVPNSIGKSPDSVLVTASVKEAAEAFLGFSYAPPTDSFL
UniProt Q14289, sequence (whole entry, looked up): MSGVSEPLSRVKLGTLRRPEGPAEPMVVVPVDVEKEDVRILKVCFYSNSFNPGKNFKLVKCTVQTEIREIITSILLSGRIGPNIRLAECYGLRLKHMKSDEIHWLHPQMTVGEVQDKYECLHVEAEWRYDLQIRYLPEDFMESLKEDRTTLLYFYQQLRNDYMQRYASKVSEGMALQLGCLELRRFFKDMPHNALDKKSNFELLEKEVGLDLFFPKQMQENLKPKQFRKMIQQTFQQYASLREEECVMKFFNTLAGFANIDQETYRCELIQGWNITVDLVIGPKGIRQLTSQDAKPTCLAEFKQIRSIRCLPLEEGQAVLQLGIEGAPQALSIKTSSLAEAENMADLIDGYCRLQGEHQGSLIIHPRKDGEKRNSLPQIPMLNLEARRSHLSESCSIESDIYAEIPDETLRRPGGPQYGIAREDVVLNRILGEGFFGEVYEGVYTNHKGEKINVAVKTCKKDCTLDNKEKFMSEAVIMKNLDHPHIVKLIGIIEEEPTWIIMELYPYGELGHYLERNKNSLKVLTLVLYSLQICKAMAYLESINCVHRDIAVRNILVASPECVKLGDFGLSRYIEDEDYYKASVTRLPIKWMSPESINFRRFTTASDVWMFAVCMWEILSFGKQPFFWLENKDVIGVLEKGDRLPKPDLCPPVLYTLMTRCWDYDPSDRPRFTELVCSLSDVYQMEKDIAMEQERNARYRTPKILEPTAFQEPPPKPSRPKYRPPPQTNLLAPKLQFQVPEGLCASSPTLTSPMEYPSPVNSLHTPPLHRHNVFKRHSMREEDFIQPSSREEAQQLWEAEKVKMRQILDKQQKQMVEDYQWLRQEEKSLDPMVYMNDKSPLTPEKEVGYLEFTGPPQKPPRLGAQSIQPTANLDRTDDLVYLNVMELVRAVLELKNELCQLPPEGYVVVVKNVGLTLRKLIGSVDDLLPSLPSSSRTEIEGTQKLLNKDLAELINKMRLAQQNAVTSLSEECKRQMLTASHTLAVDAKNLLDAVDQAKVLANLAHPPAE
UniProt Q92847, sequence (whole entry, looked up): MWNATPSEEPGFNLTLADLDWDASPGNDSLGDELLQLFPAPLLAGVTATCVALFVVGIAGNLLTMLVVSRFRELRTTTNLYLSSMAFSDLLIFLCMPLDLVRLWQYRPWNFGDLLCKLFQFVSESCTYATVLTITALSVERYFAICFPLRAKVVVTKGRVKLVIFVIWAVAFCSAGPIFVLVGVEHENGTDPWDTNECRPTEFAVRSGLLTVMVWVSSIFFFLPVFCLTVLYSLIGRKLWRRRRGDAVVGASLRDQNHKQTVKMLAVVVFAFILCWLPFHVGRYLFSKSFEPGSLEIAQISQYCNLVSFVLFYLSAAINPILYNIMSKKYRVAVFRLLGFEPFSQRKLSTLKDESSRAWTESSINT

With `COc1cc(OC)c2c(=O)cc(-c3cc(C)c(OCCCN4CCN(C)CC4)c(C)c3)oc2c1` the IC50 was 2.21 µM (Bromodomain testis-specific protein, BD2 (BRDT, Homo sapiens, UniProt Q58F21); cell-free assay, TR-FRET).
For `Fc1ccccc1-c1cc(CN2c3ccccc3C=Cc3ccccc32)on1`, the IC50 was 11.9 µM (Urease; enzyme activity, inhibitor).
For `O=C(Nc1cc(-c2ccc(Cl)cc2)[nH]n1)c1cccs1`, the IC50 was 1.2 µM (crk3 with CYC6; enzyme activity, inhibitor, radiometric; together with: Leishmania major CYC6 cyclin, 1 µM ATP).
The IC50 of `C#Cc1ccc2nc([C@H](CCNC(=N)c3ccc([N+](=O)[O-])o3)NC(=O)c3noc(-c4cc(F)ccc4F)n3)[nH]c2c1` is reported as 1.5 µM (STING1 (Homo sapiens, UniProt Q86WV6, H232R); reporter gene).
`CC(C)(Sc1nc2ncccc2n1Cc1ccc(Br)c2ccccc12)C(=O)O` gave an IC50 of 0.332 µM (SLC22A12 (Homo sapiens, UniProt Q96S37); transporter uptake, inhibitor, radiometric).
`COc1ccc(OC)c(CN2CCN(Cc3cc(OC)c(O)c(OC)c3)CC2)c1` gave an IC50 of 4 ± 2 µM (Alpha-synuclein (SNCA, Homo sapiens, UniProt P37840); fibril growth, ELISA and FlAsH; 20 h, together with: 6 µM monomer).
The IC50 of `CC(C)(COC(=O)/C=C/C=C/c1ccc2c(c1)OCO2)CC1=C(O)C(=O)c2ccccc2C1=O` is reported as 12.6 µM (MAL12 (Saccharomyces cerevisiae S288c, UniProt P53341); enzyme activity, inhibitor).
With `CN1CCCN(c2cnc3c(cc(C(=O)NCc4ccc(Cl)cc4)c(=O)n3CC(=O)N3CC(C)(F)C3)n2)C1=O` the IC50 was 5.25 µM (DNA polymerase catalytic subunit; enzyme activity; retest).
For `O=C(Nc1cc(C2CC2)[nH]n1)c1ccccc1`, the IC50 was 1.7 µM (crk3 with CYC6; enzyme activity, inhibitor, radiometric; together with: Leishmania major CYC6 cyclin, 1 µM ATP).
With `O=C1C(Cl)=C(NCCN2CCOCC2)C(=O)c2ncccc21` the IC50 was 1.5 µM (SETD2 (Homo sapiens, UniProt Q9BYW2); enzyme activity, inhibitor).
The IC50 of `CSc1ccc(NC(=O)c2cnn(-c3ccc([N+](=O)[O-])cc3)c2C(F)(F)F)cc1` is reported as 6.67 µM (PTGS1 (Ovis aries, UniProt P05979); enzyme activity, inhibitor).
For `Cn1cc(-c2ccc3cc(NC(=O)Nc4cccc(C(=O)NO)c4)ccc3c2)cn1`, the IC50 was 6.21 µM (SNCA pre-formed fibrils; binding to RAGE, inhibitor, ELISA; together with: FLAG-α-syn PFFs 100 nM).
The IC50 of `CC[C@H](C)[C@H](N)C(=O)NS(=O)(=O)CC(=O)N[C@]1(C(=O)O)[C@@H]2CN(C)C=C(C(N)=O)[C@@H]2C[C@@H]1O` is reported as 2 µM (CA1 (Homo sapiens, UniProt P00915); enzyme activity, inhibitor, absorbance).
For `CCOc1cc(CN2CC3(CC(N4CCC(C(=O)O)CC4)=NO3)C2)cc(OCC)c1-c1ccc(F)cc1`, the IC50 was 2.19 µM (SSTR5 (Homo sapiens, UniProt P35346, Q99A); cAMP level, antagonist, GloSensor; AD293; Q99A mutant, bandwidth 2.63, together with: CST17 EC80 and forskolin).
`O=C(Nc1cc(-c2cccnc2)[nH]n1)C1CCC1` gave an IC50 of 20 µM (crk3 with CYC6; enzyme activity, inhibitor, radiometric; together with: Leishmania major CYC6 cyclin, 1 µM ATP).
The IC50 of `CC(C)(C)n1ncc2c(=O)n(Cc3cccc(F)c3)c(NCC3CCCCC3)nc21` is reported as 0.0237 µM (PDE1C; enzyme activity, inhibitor, radiometric).
`Cc1nc(S(=O)(=O)Nc2cc3c(cc2Oc2cccc(COCC(C)C)c2)n(C)c(=O)n3C)cn1C` has an IC50 of > 20 µM (Transcription initiation factor TFIID subunit 1-like, BD2 (TAF1L, Homo sapiens, UniProt Q8IZX4); HTRF; GST-tagged protein).
With `C[C@H]1[C@@H](O)O[C@@H]2O[C@@]3(C)CC[C@H]4[C@H](C)CC[C@@H]1[C@@]24OO3` the IC50 was > 200 µM (BCL2L1 (Homo sapiens, UniProt Q07817); binding, displacement, fluorescence polarization; together with: labelled Bid BH3 peptide).
For `O=[N+]([O-])c1cccc(-c2cc(CN3c4ccccc4C=Cc4ccccc43)on2)c1`, the IC50 was > 27 µM (Urease; enzyme activity, inhibitor).
With `COc1ccc(C(=O)c2c(C(=O)NCCCN(C)C)oc3ccc(Cl)cc3c2=O)cc1OC` the IC50 was 0.00832 µM (GHSR (Homo sapiens, UniProt Q92847); receptor internalization, ELISA; HEK293T; 45 min, 37 °C).
The IC50 of `CC(C)C[C@H](NC(=O)[C@H](Cc1ccc(CN)cc1)NC(=O)[C@H](Cc1ccccc1)N=[N+]=[N-])C(=O)N[C@@H](CC1CC2CCC1C2)C(=O)[C@@]1(C)CO1` (stereo in doubt) is reported as 3.12 µM (Proteasome subunit beta type-10; inhibitor, biochemical).
`Cc1cncn1Cc1ccc(-c2cccc(Br)c2)cc1` gave an IC50 of 1.31 µM (QPCT (Homo sapiens, UniProt Q16769)).
`CC(C)n1cc[nH]c1=S` gave an IC50 of 9.7 ± 4.3 µM (SYK tandem SH2 domains; binding, inhibitor, TR-FRET; together with: FITC-FCER1G phospho-ITAM peptide).
The IC50 of `CC(C)[C@H](NC(=O)[C@H](Cc1ccc(O)cc1)NC(=O)[C@H](CCC(N)=O)NC(=O)[C@@H](N)Cc1ccc(O)cc1)C(=O)N[C@@H](CO)C(=O)NCC(=O)NCC(=O)O` is reported as 131 µM (SUMO-activating enzyme (Homo sapiens, UniProt Q9UBE0+Q9UBT2); SUMO thioester formation, Western blot; 10 min, together with: 1 µM SUMO).
`CC(C)c1nnc(S)[nH]1` has an IC50 of 12.5 ± 0.57 µM (SYK tandem SH2 domains; binding, inhibitor, TR-FRET; together with: FITC-FCER1G phospho-ITAM peptide).
`CC(=O)c1cnc2ccc(-c3cc(Cl)c(O)c(Cl)c3)nc2c1N[C@H]1CC[C@H](CN(C)C)CC1` gave an IC50 of 1.91 µM (Receptor-like protein kinase FERONIA (FER, Arabidopsis thaliana, UniProt Q9SCZ4, M613A); kinase activity, inhibitor, ADP-Glo; 60 min, together with: 50 µM ATP).
`Clc1cccc(-c2cc(CN3c4ccccc4C=Cc4ccccc43)on2)c1` has an IC50 of 6.34 µM (Urease; enzyme activity, inhibitor).
The IC50 of `COc1cc(O)c2c(c1)CCC21CCC(OC(C)=O)CC1` (stereo not shown) is reported as 1410 ± 80 µM (rat intestinal maltase; inhibitor; rat intestinal acetone powder; 10 min, 37 °C, together with: maltose 10 mM).
For `CC[C@H](C)n1cc(C)c2c(C(=O)NCc3c(C)cc(C)[nH]c3=O)cc(-c3ccc(N4CCN(C(=O)CCOCCOCCOCCOCCNC(=O)CCCC[C@@H]5SC[C@@H]6NC(=O)N[C@@H]65)CC4)nc3)cc21`, the IC50 was 0.0032 µM (Histone-lysine N-methyltransferase EZH2, PRC2 pentameric complex (EZH2, Homo sapiens, UniProt Q15910); enzyme activity, inhibitor; together with: H3K27me3 activating peptide).
`COc1cc(OC)c(/N=N/c2ccc(C(=O)NO)cc2C(F)(F)F)c(OC)c1` gave an IC50 of > 512 µM (Urease; enzyme activity, inhibitor, absorbance; pH 7.3).
`CCOc1ccc(-c2cc(CN3c4ccccc4C=Cc4ccccc43)on2)cc1` gave an IC50 of 3.67 µM (Urease; enzyme activity, inhibitor).
`CCN(CC)Cc1ccc2cc(NC(=O)Nc3ccc(C(=O)NO)cc3)ccc2c1` has an IC50 of 4.95 µM (SNCA pre-formed fibrils; binding to RAGE, inhibitor, ELISA; together with: FLAG-α-syn PFFs 100 nM).
The IC50 of `Cc1ccc(CNc2nc3c(cnn3C(C)(C)C)c(=O)n2Cc2cccc(F)c2)cn1` is reported as 0.0045 µM (PDE1C; enzyme activity, inhibitor, radiometric).
`Cc1ccc(NS(=O)(=O)c2c(C(=O)N3CCCC3)c(C)n(C)c2C)cc1Cl` gave an IC50 of > 100 µM (DRD2 (Homo sapiens, UniProt P14416)).
For `Cc1ccc(Nc2cc(NC3CC3)n3ncc(C#N)c3n2)cc1NC(=O)C1CC1`, the IC50 was > 10 µM (SGK1 (Homo sapiens, UniProt O00141); inhibitor).
`O=C(O)P(=O)(O)O` has an IC50 of 4.4 µM (DNA polymerase catalytic subunit; enzyme activity, inhibitor).
For `O=C(Nc1cc(Cc2ccccc2)[nH]n1)C1CCC1`, the IC50 was 11 µM (crk3 with CYC6; enzyme activity, inhibitor, radiometric; together with: Leishmania major CYC6 cyclin, 1 µM ATP).
`CC(C)(C)n1ncc2c(=O)n(Cc3cccc(F)c3)c(NCc3cccnc3)nc21` gave an IC50 of 0.004 µM (PDE1C; enzyme activity, inhibitor, radiometric).
For `Fc1ccc(Nc2nc(NC3CCCCC3)c3cc(Br)ccc3n2)cc1F`, the IC50 was 0.501 µM (ADRB2 (Homo sapiens, UniProt P07550, F133L); β-arrestin2 recruitment, antagonist, BRET; HEK293; mutant F133L, together with: isoprenaline 1 µM).
For `CCn1nc(Cl)c2c1-c1cnc(N)c(c1)O[C@H](C)c1cc(F)ccc1-c1nn(C)cc1C2`, the IC50 was 0.475 µM (EPHA7 (Homo sapiens, UniProt Q15375); enzyme activity, inhibitor, radiometric).
For `CC(C)C[C@H](NC(=O)[C@H](Cc1ccc(CN)cc1)NC(=O)[C@H](Cc1ccccc1)N=[N+]=[N-])C(=O)N[C@@H](CC1CCC2CCCCC2C1)C(=O)[C@@]1(C)CO1` (stereo partly shown), the IC50 was 0.206 µM (Proteasome subunit beta type-10; inhibitor, biochemical).
`CCN(CC)CC(=O)Nc1cccc(-n2cc(-c3ccc4ccc(-c5cn(-c6cccc(NC(=O)CN(CC)CC)c6)nn5)cc4c3)nn2)c1` has an IC50 of > 10 µM (MKNK2 (Homo sapiens, UniProt Q9HBH9); enzyme activity, inhibitor).
With `CN1CCN(c2cccc3cc(NC(=O)Nc4cccc(C(=O)NO)c4)ccc23)CC1` the IC50 was 1.3 µM (SNCA pre-formed fibrils; binding to mouse LAG3 D1, inhibitor, ELISA; together with: FLAG-α-syn PFFs 100 nM).
The IC50 of `Cc1nn(-c2cccc(N)c2)c(=O)c2cnc(Nc3ccc(N4CCNCC4)cc3)nc12` is reported as > 10 µM (PTK2B (Homo sapiens, UniProt Q14289); enzyme activity, inhibitor).
For `C[S@@](=N)(=O)c1ccc(C(=O)Nc2cc(-c3ccc(F)cc3)ccc2N)cc1`, the IC50 was > 100 µM (Histone deacetylase (HDAC1 and HDAC2), in Sin3 complex (HDAC1/HDAC2, Homo sapiens, UniProt Q13547+Q92769); enzyme activity, inhibitor).
For `CCN(CC)Cc1ccc2cc(COC(=O)Nc3cccc(C(=O)NO)c3)ccc2c1`, the IC50 was 5.78 µM (SNCA pre-formed fibrils; binding to RAGE, inhibitor, ELISA; together with: FLAG-α-syn PFFs 100 nM).
With `Cc1cc(C)nc(NC(=S)N2CCN(c3ccncc3)CC2)c1` the IC50 was > 57 µM (HSD17B4 (Homo sapiens, UniProt P51659); enzyme activity, inhibitor).
With `CC(C)[C@H](NC(=O)[C@H](Cc1ccccc1)NC(=O)c1ccc(C(C)(C)C)cc1)C(=O)N[C@@H](Cc1c[nH]cn1)C(=O)N[C@@H](CCCCN(C)C1CC2CCC1C2)C(=O)N[C@@H](CO)C(N)=O` (stereo partly shown) the IC50 was > 30 µM (Chromobox protein homolog 7 (Homo sapiens, UniProt O95931); ligand displacement, TR-FRET).
`CC1CC=CCCC=CC(=O)Cc2cc(O)cc(O)c2C(=O)O1` (stereo not shown) gave an IC50 of > 10 µM (MAP3K7 (Homo sapiens, UniProt O43318); enzyme activity, inhibitor, ATP luminescence).

Some of these lines once more:
`CC(C)c1nnc(S)[nH]1` has an IC50 of 12.5 ± 0.57 µM (SYK tandem SH2 domains; binding, inhibitor, TR-FRET; together with: FITC-FCER1G phospho-ITAM peptide).
For `Cn1cc(-c2ccc3cc(NC(=O)Nc4cccc(C(=O)NO)c4)ccc3c2)cn1`, the IC50 was 6.21 µM (SNCA pre-formed fibrils; binding to RAGE, inhibitor, ELISA; together with: FLAG-α-syn PFFs 100 nM).
With `C[C@H]1[C@@H](O)O[C@@H]2O[C@@]3(C)CC[C@H]4[C@H](C)CC[C@@H]1[C@@]24OO3` the IC50 was > 200 µM (BCL2L1 (Homo sapiens, UniProt Q07817); binding, displacement, fluorescence polarization; together with: labelled Bid BH3 peptide).
`COc1ccc(OC)c(CN2CCN(Cc3cc(OC)c(O)c(OC)c3)CC2)c1` gave an IC50 of 4 ± 2 µM (Alpha-synuclein (SNCA, Homo sapiens, UniProt P37840); fibril growth, ELISA and FlAsH; 20 h, together with: 6 µM monomer).
`CC1CC=CCCC=CC(=O)Cc2cc(O)cc(O)c2C(=O)O1` (stereo not shown) gave an IC50 of > 10 µM (MAP3K7 (Homo sapiens, UniProt O43318); enzyme activity, inhibitor, ATP luminescence).
`Cc1nc(S(=O)(=O)Nc2cc3c(cc2Oc2cccc(COCC(C)C)c2)n(C)c(=O)n3C)cn1C` has an IC50 of > 20 µM (Transcription initiation factor TFIID subunit 1-like, BD2 (TAF1L, Homo sapiens, UniProt Q8IZX4); HTRF; GST-tagged protein).
The IC50 of `CC(C)C[C@H](NC(=O)[C@H](Cc1ccc(CN)cc1)NC(=O)[C@H](Cc1ccccc1)N=[N+]=[N-])C(=O)N[C@@H](CC1CC2CCC1C2)C(=O)[C@@]1(C)CO1` (stereo in doubt) is reported as 3.12 µM (Proteasome subunit beta type-10; inhibitor, biochemical).
